Published values gathered from unrelated publications.
Each line is one published result; not all experiments were run side by side. ± gives the spread as reported. Primed or numbered codes have the meaning given here. Where no end group is shown, it is not given here. No end group written: not given here. [ ]: non-standard residue; d: D form.
DLG4: DLG4 309-422 (Homo sapiens, UniProt P78352)
B1: VCL head domain 1; chain MPVFHTRTIESILEPVAQQISHLVIMHEEGEVDGKAIPDLTAPVSAVQAAVSNLVRVGKETVQTTEDQILKRDMPPAFIKVENACTKLVRAAQMLQADPYSVPARDYLIDGSRGILSGTSDLLLTFDEAEVRKIIRVCKGILEYLTVAEVVETMEDLVTYTKNLGPGMTKMAKMIDERQQELTHQEHRVMLVNSMNTVKELLPVLISAMKIFVTTKNTKSQGIEEALKNRNFTVEKMSAEINEIIRVLQLTSWDEDAW
B2: HSPB6 (Homo sapiens, UniProt O14558); sequence looked up; chain MEIPVPVQPSWLRRASAPLPGLSAPGRLFDQRFGEGLLEAELAALCPTTLAPYYLRAPSVALPVAQVPTDPGHFSVLLDVKHFSPEEIAVKVVGEHVEVHARHEERPDEHGFVAREFHRRYRLPPGVDPAAVTSALSPEGVLSIQAAPASAQAPPPAAAK
B3: TREM2 19-174 (Homo sapiens, UniProt Q9NZC2); sequence looked up; chain HNTTVFQGVAGQSLQVSCPYDSMKHWGRRKAWCRQLGEKGPCQRVVSTHNLWLLSFLRRWNGSTAITDDTLGGTLTITLRNLQPHDAGLYQCQSLHGSEADTLRKVLVEVLADPLDHRDAGDLWFPGESESFEDAHVEHSISRSLLEGEIPFPPTS
B4: UGT1A9 (Homo sapiens, UniProt O60656); chain GKLLVVPMDGSHWFTMRSVVEKLILRGHEVVVVMPEVSWQLGRSLNCTVKTYSTSYTLEDLDREFKAFAHAQWKAQVRSIYSLLMGSYNDIFDLFFSNCRSLFKDKKLVEYLKESSFDAVFLDPFDNCGLIVAKYFSLPSVVFARGILCHYLEEGAQCPAPLSYVPRILLGFSDAMTFKERVRNHIMHLEEHLLCHRFFKNALEIASEILQTPVTEYDLYSHTSIWLLRTDFVLDYPKPVMPNMIFIGGINCHQGKPLPMEFEAYINASGEHGIVVFSLGSMVSEIPEKKAMAIADALGKIPQTVLWRYTGTRPSNLANNTILVKWLPQNDLLGHPMTRAFITHAGSHGVYESICNGVPMVMMPLFGDQMDNAKRMETKGAGVTLNVLEMTSEDLENALKAVINDKSYKENIMRLSSLHKDRPVEPLDLAVFWVEFVMRHKGAPHLRPAAHDLTWYQYHSLDVIGFLLAVVLTVAFITFKCCAYGYRKCLGKKGRVKKAHKSKTH
B5: Reln 1948-2662 (Mus musculus, UniProt Q60841); chain DGNNLNNPVLLLDTFDFGPREDNWFFYPGGNIGLYCPYSSKGAPEEDSAMVFVSNEVGEHSITTRDLSVNENTIIQFEINVGCSTDSSSADPVRLEFSRDFGATWHLLLPLCYHSSSLVSSLCSTEHHPSSTYYAGTTQGWRREVVHFGKLHLCGSVRFRWYQGFYPAGSQPVTWAIDNVYIGPQCEEMCYGHGSCINGTKCICDPGYSGPTCKISTKNPDFLKDDFEGQLESDRFLLMSGGKPSRKCGILSSGNNLFFNEDGLRMLVTRDLDLSHARFVQFFMRLGCGKGVPDPRSQPVLLQYSLNGGLSWSLLQEFLFSNSSNVGRYIALEMPLKARSGSTRLRWWQPSENGHFYSPWVIDQILIGGNISGNTVLEDDFSTLDSRKWLLHPGGTKMPVCGSTGDALVFIEKASTRYVVTTDIAVNEDSFLQIDFAASCSVTDSCYAIELEYSVDLGLSWHPLVRDCLPTNVECSRYHLQRILVSDTFNKWTRITLPLPSYTRSQATRFRWHQPAPFDKQQTWAIDNVYIGDGCLDMCSGHGRCVQGSCVCDEQWGGLYCDEPETSLPTQLKDNFNRAPSNQNWLTVSGGKLSTVCGAVASGLALHFSGGCSRLLVTVDLNLTNAEFIQFYFMYGCLITPSNRNQGVLLEYSVNGGITWNLLMEIFYDQYSKPGFVNILLPPDAKEIATRFRWWQPRHDGLDQNDWAIDNVLIS
B6: ULBP1 29-216 (Homo sapiens, UniProt Q9BZM6); Alexa Fluor 647 label; chain DTHCLCYDFIITPKSRPEPQWCEVQGLVDERPFLHYDCVNHKAKAFASLGKKVNVTKTWEEQTETLRDVVDFLKGQLLDIQVENLIPIEPLTLQARMSCEHEAHGHGRGSWQFLFNGQKFLLFDSNNRKWTALHPGAKKMTEKWEKNRDVTMFFQKISLGDCKMWLEEFLMYWEQMLDPTKPPSLAPG
B7: POLQ helicase and polymerase, central domain replaced 1-898 del899-1789 (Homo sapiens, UniProt O75417); Red-tris-NHS label; chain MNLLRRSGKRRRSESGSDSFSGSGGDSSASPQFLSGSVLSPPPGLGRCLKAAAAGECKPTVPDYERDKLLLANWGLPKAVLEKYHSFGVKKMFEWQAECLLLGQVLEGKNLVYSAPTSAGKTLVAELLILKRVLEMRKKALFILPFVSVAKEKKYYLQSLFQEVGIKVDGYMGSTSPSRHFSSLDIAVCTIERANGLINRLIEENKMDLLGMVVVDELHMLGDSHRGYLLELLLTKICYITRKSASCQADLASSLSNAVQIVGMSATLPNLELVASWLNAELYHTDFRPVPLLESVKVGNSIYDSSMKLVREFEPMLQVKGDEDHVVSLCYETICDNHSVLLFCPSKKWCEKLADIIAREFYNLHHQAEGLVKPSECPPVILEQKELLEVMDQLRRLPSGLDSVLQKTVPWGVAFHHAGLTFEERDIIEGAFRQGLIRVLAATSTLSSGVNLPARRVIIRTPIFGGRPLDILTYKQMVGRAGRKGVDTVGESILICKNSEKSKGIALLQGSLKPVRSCLQRREGEEVTGSMIRAILEIIVGGVASTSQDMHTYAACTFLAASMKEGKQGIQRNQESVQLGAIEACVMWLLENEFIQSTEASDGTEGKVYHPTHLGSATLSSSLSPADTLDIFADLQRAMKGFVLENDLHILYLVTPMFEDWTTIDWYRFFCLWEKLPTSMKRVAELVGVEEGFLARCVKGKVVARTERQHRQMAIHKRFFTSLVLLDLISEVPLREINQKYGCNRGQIQSLQQSAAVYAGMITVFSNRLGWHNMELLLSQFQKRLTFGIQRELCDLVRVSLLNAQRARVLYASGFHTVADLARANIVEVEVILKNAVPFKSARKAVDEEEEAVEERRNMRTIWVTGRKGLTEREAAALIVEEARMILQQDLVEMGVQWGSAGSAAGSGEFRNGFKDNSPISDTSFSLQLSQDGLQLTPASSSSESLSIIDVASDQNLFQTFIKEWRCKKRFSISLACEKIRSLTSSKTATIGSRFKQASSPQEIPIRDDGFPIKGCDDTLVVGLAVCWGGRDAYYFSLQKEQKHSEISASLVPPSLDPSLTLKDRMWYLQSCLRKESDKECSVVIYDFIQSYKILLLSCGISLEQSYEDPKVACWLLDPDSQEPTLHSIVTSFLPHELPLLEGMETSQGIQSLGLNAGSEHSGRYRASVESILIFNSMNQLNSLLQKENLQDVFRKVEMPSQYCLALLELNGIGFSTAECESQKHIMQAKLDAIETQAYQLAGHSFSFTSSDDIAEVLFLELKLPPNREMKNQGSKKTLGSTRRGIDNGRKLRLGRQFSTSKDVLNKLKALHPLPGLILEWRRITNAITKVVFPLQREKCLNPFLGMERIYPVSQSHTATGRITFTEPNIQNVPRDFEIKMPTLVGESPPSQAVGKGLLPMGRGKYKKGFSVNPRCQAQMEERAADRGMPFSISMRHAFVPFPGGSILAADYSQLELRILAHLSHDRRLIQVLNTGADVFRSIAAEWKMIEPESVGDDLRQQAKQICYGIIYGMGAKSLGEQMGIKENDAACYIDSFKSRYTGINQFMTETVKNCKRDGFVQTILGRRRYLPGIKDNNPYRKAHAERQAINTIVQGSAADIVKIATVNIQKQLETFHSTFKSHGHREGMLQSDQTGLSRKRKLQGMFCPIRGGFFILQLHDELLYEVAEEDVVQVAQIVKNEMESAVKLSVKLKVKVKIGASWGELKDFDV
B8: MYH7 839-968 (Homo sapiens, UniProt P12883); sequence looked up; chain LLKSAEREKEMASMKEEFTRLKEALEKSEARRKELEEKMVSLLQEKNDLQLQVQAEQDNLADAEERCDQLIKNKIQLEAKVKEMNERLEDEEEMNAELTAKKRKLEDECSELKRDIDDLELTLAKVEKEK
B9: BNR1 1288-1375 (Saccharomyces cerevisiae, UniProt P40450); sequence looked up; chain LDMRTSSNKKSNGSDENDGEKVNRDAVDLLISKLREVKKDPEPLRRRKSTKLNEIAINVHEGDVKTRKDEDHVLLERTHAMLNDIQNI
UniProt Q9BXS5, sequence (whole entry, looked up): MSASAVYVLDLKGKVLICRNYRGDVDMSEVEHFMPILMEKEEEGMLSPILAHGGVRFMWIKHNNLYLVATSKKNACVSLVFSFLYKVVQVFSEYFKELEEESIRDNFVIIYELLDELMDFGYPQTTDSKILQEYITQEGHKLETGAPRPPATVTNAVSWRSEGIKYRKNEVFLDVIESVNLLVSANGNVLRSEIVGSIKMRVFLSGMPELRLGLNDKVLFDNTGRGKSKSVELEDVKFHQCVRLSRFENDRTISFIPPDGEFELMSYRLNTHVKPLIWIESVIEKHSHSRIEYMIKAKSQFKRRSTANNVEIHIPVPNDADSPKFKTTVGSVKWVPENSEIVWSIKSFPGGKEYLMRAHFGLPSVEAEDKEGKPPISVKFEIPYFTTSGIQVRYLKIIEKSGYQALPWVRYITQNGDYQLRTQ
UniProt P26447, sequence (whole entry, looked up): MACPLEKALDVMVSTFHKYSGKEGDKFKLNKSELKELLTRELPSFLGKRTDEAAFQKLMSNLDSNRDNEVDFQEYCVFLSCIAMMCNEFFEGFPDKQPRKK
UniProt Q16539, sequence (whole entry, looked up): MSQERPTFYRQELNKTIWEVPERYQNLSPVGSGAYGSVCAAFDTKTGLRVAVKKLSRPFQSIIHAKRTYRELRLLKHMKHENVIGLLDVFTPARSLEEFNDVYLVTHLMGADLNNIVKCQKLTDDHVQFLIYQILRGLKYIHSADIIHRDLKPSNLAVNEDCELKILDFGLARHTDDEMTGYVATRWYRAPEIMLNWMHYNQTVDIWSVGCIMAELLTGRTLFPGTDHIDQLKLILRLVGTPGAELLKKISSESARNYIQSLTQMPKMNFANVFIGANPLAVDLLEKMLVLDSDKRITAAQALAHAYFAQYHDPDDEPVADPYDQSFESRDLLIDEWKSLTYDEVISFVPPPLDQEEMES
UniProt Q9BYN0, sequence (whole entry, looked up): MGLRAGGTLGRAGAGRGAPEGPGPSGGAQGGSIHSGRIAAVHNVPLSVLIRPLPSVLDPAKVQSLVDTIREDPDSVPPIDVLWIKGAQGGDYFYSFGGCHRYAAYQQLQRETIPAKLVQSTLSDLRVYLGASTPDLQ
UniProt O14965, sequence (whole entry, looked up): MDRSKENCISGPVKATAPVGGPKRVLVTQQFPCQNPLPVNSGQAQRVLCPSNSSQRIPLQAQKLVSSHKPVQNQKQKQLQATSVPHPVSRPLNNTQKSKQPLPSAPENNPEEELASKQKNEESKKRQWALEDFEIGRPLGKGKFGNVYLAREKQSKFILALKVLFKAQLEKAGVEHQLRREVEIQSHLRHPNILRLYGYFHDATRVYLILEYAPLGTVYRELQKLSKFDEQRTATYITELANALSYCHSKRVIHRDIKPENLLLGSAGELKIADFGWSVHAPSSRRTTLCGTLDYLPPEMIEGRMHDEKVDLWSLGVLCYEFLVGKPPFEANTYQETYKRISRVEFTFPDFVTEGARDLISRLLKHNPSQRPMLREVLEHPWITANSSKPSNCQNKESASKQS
UniProt O95817, sequence (whole entry, looked up): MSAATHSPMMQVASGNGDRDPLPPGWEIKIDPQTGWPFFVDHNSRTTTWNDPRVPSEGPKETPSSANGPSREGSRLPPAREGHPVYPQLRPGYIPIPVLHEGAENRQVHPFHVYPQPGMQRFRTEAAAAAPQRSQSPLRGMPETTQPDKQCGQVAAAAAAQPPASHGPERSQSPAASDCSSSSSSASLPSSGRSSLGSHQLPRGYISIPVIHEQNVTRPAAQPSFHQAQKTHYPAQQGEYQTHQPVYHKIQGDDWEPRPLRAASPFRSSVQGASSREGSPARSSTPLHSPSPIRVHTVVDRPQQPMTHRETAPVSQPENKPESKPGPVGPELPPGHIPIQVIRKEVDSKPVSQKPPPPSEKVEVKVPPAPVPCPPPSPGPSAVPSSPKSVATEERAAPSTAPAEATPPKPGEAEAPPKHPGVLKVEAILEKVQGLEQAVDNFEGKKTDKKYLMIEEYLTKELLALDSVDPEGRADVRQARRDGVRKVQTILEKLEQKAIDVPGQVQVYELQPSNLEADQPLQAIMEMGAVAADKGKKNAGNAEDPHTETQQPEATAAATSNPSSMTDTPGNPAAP
UniProt P06734, sequence (whole entry, looked up): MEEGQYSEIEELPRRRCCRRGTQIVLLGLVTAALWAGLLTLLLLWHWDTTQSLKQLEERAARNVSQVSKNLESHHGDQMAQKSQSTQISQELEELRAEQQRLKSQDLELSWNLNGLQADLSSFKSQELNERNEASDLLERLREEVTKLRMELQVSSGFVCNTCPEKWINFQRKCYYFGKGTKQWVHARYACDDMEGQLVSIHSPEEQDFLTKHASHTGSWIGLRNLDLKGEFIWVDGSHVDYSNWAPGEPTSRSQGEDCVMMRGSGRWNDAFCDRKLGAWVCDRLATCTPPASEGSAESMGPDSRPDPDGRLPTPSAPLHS
UniProt P52917, sequence (whole entry, looked up): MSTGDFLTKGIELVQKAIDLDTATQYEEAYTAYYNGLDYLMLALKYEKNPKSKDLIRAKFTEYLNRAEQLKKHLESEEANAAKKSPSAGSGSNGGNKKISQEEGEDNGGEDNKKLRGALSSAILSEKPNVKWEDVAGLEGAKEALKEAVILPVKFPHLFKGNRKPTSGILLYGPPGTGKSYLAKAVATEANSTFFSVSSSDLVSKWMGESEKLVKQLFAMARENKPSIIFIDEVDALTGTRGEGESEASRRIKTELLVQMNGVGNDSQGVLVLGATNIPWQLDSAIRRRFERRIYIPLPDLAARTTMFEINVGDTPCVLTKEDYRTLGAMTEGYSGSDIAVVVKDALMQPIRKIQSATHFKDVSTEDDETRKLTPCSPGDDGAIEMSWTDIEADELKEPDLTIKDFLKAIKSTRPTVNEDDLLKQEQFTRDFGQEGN
UniProt O15392, sequence (whole entry, looked up): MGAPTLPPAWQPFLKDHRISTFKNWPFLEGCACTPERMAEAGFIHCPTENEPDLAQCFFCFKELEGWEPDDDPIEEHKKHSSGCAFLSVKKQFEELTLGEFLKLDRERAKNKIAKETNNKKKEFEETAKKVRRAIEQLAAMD
UniProt Q65CL1, sequence (whole entry, looked up): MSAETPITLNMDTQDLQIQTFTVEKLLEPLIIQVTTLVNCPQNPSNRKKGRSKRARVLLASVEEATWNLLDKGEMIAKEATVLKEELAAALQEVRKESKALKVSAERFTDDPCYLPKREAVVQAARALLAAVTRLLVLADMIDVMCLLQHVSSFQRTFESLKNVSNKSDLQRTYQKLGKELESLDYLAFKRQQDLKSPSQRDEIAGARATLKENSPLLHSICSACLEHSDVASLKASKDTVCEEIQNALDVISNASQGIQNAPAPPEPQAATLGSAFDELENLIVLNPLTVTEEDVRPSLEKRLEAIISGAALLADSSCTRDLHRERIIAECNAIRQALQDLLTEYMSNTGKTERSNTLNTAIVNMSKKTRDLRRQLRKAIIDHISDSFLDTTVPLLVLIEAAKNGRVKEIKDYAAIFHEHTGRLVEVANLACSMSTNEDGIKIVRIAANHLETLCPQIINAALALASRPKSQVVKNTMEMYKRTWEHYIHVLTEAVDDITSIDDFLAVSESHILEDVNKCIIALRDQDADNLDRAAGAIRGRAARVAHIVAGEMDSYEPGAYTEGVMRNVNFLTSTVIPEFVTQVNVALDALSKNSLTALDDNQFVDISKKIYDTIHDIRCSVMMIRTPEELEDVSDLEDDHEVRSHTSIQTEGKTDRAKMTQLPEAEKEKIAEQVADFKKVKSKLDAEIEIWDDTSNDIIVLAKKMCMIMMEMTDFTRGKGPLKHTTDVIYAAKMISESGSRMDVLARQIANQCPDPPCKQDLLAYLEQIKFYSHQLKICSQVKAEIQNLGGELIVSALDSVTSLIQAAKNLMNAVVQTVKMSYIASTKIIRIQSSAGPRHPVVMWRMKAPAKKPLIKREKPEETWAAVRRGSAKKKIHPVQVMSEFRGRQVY
UniProt P45973, sequence (whole entry, looked up): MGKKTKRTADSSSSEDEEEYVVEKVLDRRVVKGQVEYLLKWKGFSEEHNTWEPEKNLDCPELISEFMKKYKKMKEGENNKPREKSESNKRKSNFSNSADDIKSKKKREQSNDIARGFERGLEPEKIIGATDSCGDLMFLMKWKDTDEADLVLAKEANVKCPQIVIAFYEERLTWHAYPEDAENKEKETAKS

| Substance | tested on | assay | test system | setting | endpoint | result |
| --- | --- | --- | --- | --- | --- | --- |
| B1 (VCL head domain 1) | CTNNA3 M1-M3 259-667 (UniProt Q65CL1) | magnetic tweezers force-jump | – | – | Kd | 3 nM |
| ART[Lys(Me3)]QTARKSTG (histone H3 2-13 (UniProt P68431); K4me3; Lys(Me3) = C[N+](C)(C)CCCC[C@H](N)C(=O)O; sequence looked up) | BIRC5 1-142 (Homo sapiens, UniProt O15392) | ITC | peptide | pH 7.2 | Kd | 87000 ± 10000 nM |
| {5FAM′}-DDTSRMEKVD (HSP90AA1 723-732 E730K (UniProt P07900); N-terminal 5-FAM; 5FAM′ = 5-carboxyfluorescein; sequence looked up) | STUB1 (Homo sapiens, UniProt Q9UNE7) | fluorescence polarisation | peptide | pH 7.4, 25 °C, together with: 5-Fam tracer 20 nM | Kd | 6500 ± 1500 nM |
| IGHE Cε2-4 Fc (Homo sapiens) | FCER2 156-298 (Homo sapiens, UniProt P06734) | SPR | – | – | Kd | 9100 nM |
| B2 (HSPB6) | BAG3 (Homo sapiens, UniProt O95817) | ITC | – | 25 °C, relative values | Kd | 1200 nM |
| QEECPSDSEEDEG (FURIN residues 768-780 (Homo sapiens)) | AP1M1 158-423 (Homo sapiens, UniProt Q9BXS5) | ITC | peptide | pH 7.4, 12 °C, NaCl 200 mM | Kd | > 300000 nM |
| RRRRRRC / CGSFPPWVKKTEV (peptide; cyclic, disulfide-linked poly-Arg) | DLG4 | SPR | peptide | – | Kd | 41.3 nM |
| B3 (TREM2 19-174) | Aβ42 oligomers (Homo sapiens, UniProt P05067) | BLI | – | 30 °C | Kd | 12.7 ± 0.5 nM |
| CD8A fragment (Homo sapiens) (sequence not shown) | CEACAM5 del42-46 (Homo sapiens) | SPR | – | – | Kd | 17 nM |
| MGLQERRGSNVSLTLDM (PTPN5 residues 214-230) | MAPK14 unphosphorylated (UniProt Q16539) | ITC | peptide | 25 °C | Kd | 3570 ± 208 nM |
| B4 (UGT1A9) | O=C(/C=C/c1ccccc1)c1ccccc1O | steady-state kinetics | – | pH 7.4, 37 °C | Km | 0.77 µM |
| FN1 (Homo sapiens) | ligB 631-1417 (Leptospira interrogans, UniProt C0J1Q6) | ITC | – | pH 7.5, 25 °C | Kd | 10 nM |
| S100A4, QSY 35 on amines (Homo sapiens, UniProt P26447) | SRXN1, Alexa 546 label (Homo sapiens, UniProt Q9BYN0) | FRET | – | apparent, with Ca2+, together with: Ca2+ | Kd | 60.9 nM |
| B5 (Reln 1948-2662) | LRP8 ectodomain, lacking LA4-6 (Homo sapiens) | SPR | – | steady-state affinity | Kd | 12 nM |
| B6 (ULBP1 29-216) | KLRK1/HCST, terbium label on SNAP-tag (Homo sapiens) | TR-FRET | HEK293 TRex | apparent, in cells | Kd | 70 nM |
| B7 | POLD1/POLD2/POLD3/POLD4 holoenzyme (Homo sapiens) | MST | – | room temperature | Kd | 210 nM |
| TKDELTKIMDRASKIEQIQKLAKYAISALNYEDLPTAKDELTKALDLLNSI (VTA1 280-330 (Saccharomyces cerevisiae, UniProt Q06263); sequence looked up) | VPS4 299-415 (Saccharomyces cerevisiae, UniProt P52917) | SPR | – | pH 7.0, NaCl 150 mM, equilibrium fit | Kd | 85000 ± 13000 nM |
| TDRD3 fragment (Homo sapiens) | histone H3, asymmetric dimethyl R17 | fluorescence polarisation | – | – | Kd | 50000 nM |
| B8 (MYH7 839-968) | MYH7/MYL3 sS1 1-808 (Homo sapiens) | MST | – | pH 7.5, KCl 100 mM, Hill fit, together with: ADP 500 µM | Kd | 45000 ± 10000 nM |
| B9 (BNR1 1288-1375) | AIP5 1110-1233, Alexa 488 label (Saccharomyces cerevisiae, UniProt P43597) | fluorescence polarisation | – | 30 nM, pH 7.4, NaCl 150 mM, Hill fit | Kd | 237 ± 43 nM |
| RRRRRRRC / CKNYKKTEV (peptide) | DLG4 | SPR | peptide | – | Kd | 191 nM |
| ARTKQTARKSTGGK (histone H3 2-15 (Homo sapiens, UniProt P68431); K9me3; sequence looked up) | CBX5, C-terminal Atto532 label, C-terminal amide (Homo sapiens, UniProt P45973) | MST | peptide | – | Kd | 11600 ± 1200 nM |
| EDFRSGSEAFDLIAQDEEEFNKEHQFIQEEN (CEP192 506-536 (Homo sapiens, UniProt Q8TEP8)) | AURKA kinase domain 123-403, phosphorylated (Homo sapiens, UniProt O14965) | ITC | peptide | – | Kd | 5300 ± 600 nM |
